Results collected from several papers.
Parts stem from different laboratories: compare values within a part only.

Set 1
Target: Sal-like protein 4, full length isoform A (SALL4, Homo sapiens, UniProt Q9UJQ4, residues 1-1053)
Chain of UniProt Q9UJQ4 (whole entry, looked up): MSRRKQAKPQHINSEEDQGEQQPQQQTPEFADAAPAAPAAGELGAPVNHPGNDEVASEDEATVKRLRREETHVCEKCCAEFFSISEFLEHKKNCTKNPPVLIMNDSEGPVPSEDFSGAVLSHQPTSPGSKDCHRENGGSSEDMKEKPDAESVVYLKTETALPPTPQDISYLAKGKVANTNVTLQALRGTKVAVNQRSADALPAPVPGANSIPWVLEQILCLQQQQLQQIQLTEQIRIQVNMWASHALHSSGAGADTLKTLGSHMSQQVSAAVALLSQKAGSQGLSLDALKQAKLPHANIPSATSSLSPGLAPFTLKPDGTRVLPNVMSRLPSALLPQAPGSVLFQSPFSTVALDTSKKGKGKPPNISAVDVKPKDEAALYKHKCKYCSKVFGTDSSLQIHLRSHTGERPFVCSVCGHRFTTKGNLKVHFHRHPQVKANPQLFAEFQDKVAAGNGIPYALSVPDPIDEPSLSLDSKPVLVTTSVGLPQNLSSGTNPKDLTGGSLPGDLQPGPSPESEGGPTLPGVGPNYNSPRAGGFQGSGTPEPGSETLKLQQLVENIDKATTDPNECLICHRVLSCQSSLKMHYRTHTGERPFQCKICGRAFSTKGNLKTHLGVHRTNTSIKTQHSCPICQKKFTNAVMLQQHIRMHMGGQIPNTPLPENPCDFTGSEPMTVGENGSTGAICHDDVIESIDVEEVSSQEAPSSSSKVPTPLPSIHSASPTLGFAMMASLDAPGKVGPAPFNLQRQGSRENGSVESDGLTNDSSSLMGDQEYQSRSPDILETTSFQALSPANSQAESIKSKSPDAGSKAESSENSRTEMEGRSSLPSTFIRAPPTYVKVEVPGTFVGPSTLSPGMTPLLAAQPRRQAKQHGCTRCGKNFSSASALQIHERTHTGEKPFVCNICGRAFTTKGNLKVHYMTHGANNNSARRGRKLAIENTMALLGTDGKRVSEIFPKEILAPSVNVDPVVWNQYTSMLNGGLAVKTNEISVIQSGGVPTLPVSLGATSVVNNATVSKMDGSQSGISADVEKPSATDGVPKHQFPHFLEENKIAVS
Method: universal PBM
Form: double-stranded DNA, one strand shown
Sample: in vitro
Concentration: 600 nM
Setting: 8-mer, flanks averaged, mean of replicates
Reading: higher = stronger binding
| Strand | E-score |
| --- | --- |
| CCCTCGGC | -0.318 |
| GGCTGATA | -0.0115 |
| AGGGAGAG | -0.00702 |
| CATAGTAA | 0.316 |
| CACACGCG | 0.038 |
| TCCCGGCA | -0.288 |
| ATTGGTGA | 0.191 |
| CAAAACAC | 0.123 |
| GGATTACC | -0.171 |
| AAGCGTGC | -0.142 |
| CCTGTTCG | -0.181 |
| GCCTCGCA | -0.213 |
| ACCTAGAT | -0.16 |
| ACGACAGA | -0.0627 |
| CTTCCCTA | 0.0258 |
| GAAATTGC | 0.0886 |
| GGTCGACC | -0.188 |
| GGTCCGAA | -0.106 |
| ATAGTCTG | 0.187 |

Set 2
Target: RNA binding protein fox-1 homolog 2, RRM domain, GST-SBP tag (RBFOX2, Homo sapiens, UniProt O43251-10, residues 100-194)
Method: RNA Bind-n-Seq
Form: RNA
Sample: in vitro
Concentration: 365 nM
Setting: natural RNA segment, single round, ends assumed
Relative to: no-protein control
Reading: higher = stronger binding
Shared flanks, not repeated: GGGAGUUCUACAGUCCGACGAUC … UGGAAUUCUCGGGUGCCAA
Construct (chain): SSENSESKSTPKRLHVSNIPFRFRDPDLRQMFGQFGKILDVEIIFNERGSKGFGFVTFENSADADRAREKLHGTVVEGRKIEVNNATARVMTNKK
| Strand | RBNS enrichment (R) |
| --- | --- |
| UCCUCUGAAUGAAUAGGAGGAUGGUACCAGCCAUGACAGAAACACCAGCAUUAGGUAUUACUACCUGCCUCUGUCACUAAGAAUUUCUUCUCUUCCAUCUUCUGUGAGUA | 1.18 |
| GUAAUUUAAGGUCUGUUCACAGCUGUAAUUAUUAUUAUUUUCUACAAUAAAUGGCACCUGCAUACAGAAAGGUUUGGGCUGUUCUCUAUCUGUGGAUGGGACUGGGCUGG | 0.406 |
| CAGCUCCUCCGGUUAUUUCCUUGCCACUGCCUGCCCGAGCCACUUCAAGCCUUAGGAACUGGCAGACGGAACUGUUUCCAUCCACCAACCCCCAGGGUAUCAACCACUUU | 1.4 |
| UCACUUCCACAAAUGGCAUCUCCAAGUAAGCUGUCACCUGGUACACAUGGAGGUGGAGCCUGCAGCUGGAGUGAGGCGCACACUUGACUCUACUUGCAGGUGGUUUGCUG | 0.259 |
| GGUGGAGGUGUUAUUUGUGCUUUAGAAGAUACUUGCUGUUGGCUGGGCUACUGUAUACAGUGUACAAUGUGUAUUUCUUCAACCAUAUAUUUUAAAAAGACGUACAUAGA | 0.551 |
| AAUCCCUCAUAUGAUGUAUCAGAUACAAUUGAGGUUCUAAUCUAGUCUGUUAAUUUAUCUGAAAUUGGAUUUUUUUUUAAAAAAGUAAUAAAAAAUUAAAUACUUCCCUU | 1.25 |
| UUUGUUAAGAUAGGGUUUGGAUUUAGUAUGAAGCUUUGGCUAAAACCCUUGGGUUUGCCUUAGAACACUGACACUAAGAACCUGGAAUGACAUGGGGAGGACAAAGAGAG | 0.386 |
| CGCGCAAGUCUGAGGGUCUGGGCGGCGGGCGGCUGGGUCUGUGCAUUUCUGGUUGCACCGCGGCGCUUCCCAGCACCAACAUGUAACCGGCAUGUUUCCAGCAGAAGACA | 0.379 |
| CUCCGAGAGAAGCACGCCAACCUUAACAUCCCCUACAGCAUCUUGGUGCUUCACACACCAUUUAGGAGGCCACCCUAACGAGGCAAGAGGACAUGGGGGUGUGCAGAAGU | 2.33 |
| GCUCUUCCCACUCCUUCAAGUUGCCCUCACAAACCAAUGUGGCAAGACUACUGGACUUGUAUCCAUGGUACUAUACUCAGUCCUCUUAUCUCAGCUUGCUGAGGGGCAGG | 0.238 |
| AUAUUUAUUUGACAGCUAUGAGGAACUAAAUUUAGAGGUUUCUCCAAUCUUAUAUGAAUAUUUUUCAUAAAAUAGUUGUGAUUAUAUUUUUACAUCUUUUAUGCACCAAA | 0.731 |
| UUAUUGUGGAGCAUAGGAAUUGCCCCCCUCCAGGCUUCACCCUCCCUGCCUAAGCAGGGUGGGGGCAGAGCCAUGACAUUUUUGGUUUAAAGGAGCCUUCUCAUCUCUGG | 0.156 |

Set 3
Target: Histone acetyltransferase KAT6A, winged helix 2, GST fusion (KAT6A, Homo sapiens, UniProt Q92794, residues 85-181)
Method: protein binding microarray
Form: double-stranded DNA, one strand shown
Sample: in vitro
Concentration: not given
Setting: 8-mer, flanks averaged, mean of 2 arrays, mostly near background
Relative to: not given
Reading: higher = stronger binding
Construct (chain): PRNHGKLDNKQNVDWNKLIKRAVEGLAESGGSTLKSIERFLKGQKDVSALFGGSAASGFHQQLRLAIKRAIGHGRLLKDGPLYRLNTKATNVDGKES
| Strand | E-score |
| --- | --- |
| ATCTAGAT | 0.071 |
| CGTTGTTA | -0.0151 |
| CAAGTAGC | -0.089 |
| AAACATTT | 0.0171 |
| CCAAAAAC | 0.0455 |
| ACACCACC | -0.303 |
| AACGCGTA | -0.112 |
| AATCTTCC | -0.0157 |
| GAGTTTGA | 0.00992 |
| GATTTTTA | 0.0841 |
| AGTTTTAT | 0.119 |
| GCCGCCAC | 0.0994 |
| AGGCCTAC | -0.0696 |
| AATGGTGA | -0.109 |
| AAACTCAG | 0.00707 |
| GGTAGGAA | -0.0761 |
| CCCCGTCA | 0.136 |
| ACCGTGTC | 0.127 |
| TAACGTTA | -0.161 |
| GCTGTGCC | 0.227 |
| AGGGTAGA | -0.0817 |
| ATACCAAA | -0.00779 |
| AATCCAGG | 0.0865 |
| CAGTAAGG | -0.0405 |

Set 4
Target: Ras GTPase-activating protein-binding protein 1, full length (G3BP1, Homo sapiens, UniProt Q13283)
Chain of UniProt Q13283 (whole entry, looked up): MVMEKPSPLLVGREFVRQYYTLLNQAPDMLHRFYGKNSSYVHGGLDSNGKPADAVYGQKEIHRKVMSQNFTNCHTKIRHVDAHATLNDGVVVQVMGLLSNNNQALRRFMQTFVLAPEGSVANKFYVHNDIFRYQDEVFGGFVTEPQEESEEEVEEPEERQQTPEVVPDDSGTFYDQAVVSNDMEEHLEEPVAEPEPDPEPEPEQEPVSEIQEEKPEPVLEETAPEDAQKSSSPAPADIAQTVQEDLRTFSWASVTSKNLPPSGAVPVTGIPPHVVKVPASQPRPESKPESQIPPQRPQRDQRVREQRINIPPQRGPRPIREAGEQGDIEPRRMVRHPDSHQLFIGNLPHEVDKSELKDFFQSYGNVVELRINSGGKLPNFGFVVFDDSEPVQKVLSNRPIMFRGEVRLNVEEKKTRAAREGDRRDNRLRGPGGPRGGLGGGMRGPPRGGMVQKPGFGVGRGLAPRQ
Method: RNA Bind-n-Seq
Form: RNA
Sample: in vitro
Concentration: 200 nM
Setting: whole 134-nt RNA, ends assumed
Together with: 150 mM LiCl
Relative to: input library
Reading: higher = stronger binding
All molecules: 7-deaza-guanosine replaces G
Shared flanks, not repeated: GGGAGUUCUACAGUCCGACGAUC … UGGAAUUCUCGGGUGUCAAGG
| Strand | log2 enrichment |
| --- | --- |
| GUCCUGUGCUACACAUCGUAUGUACCGAAUCGGGAGGGAAAAAAAGGGUUUUUUUGGGAAAGUAUUAUGUUACGCCGUUCGGAUCUGCAC | -0.57 |
| AAGUCCUGUGCUACACAUCGUAUGUACCGAAUCGGAAAAGGGAAAAGGAAAAGGGGAAAGUAUUAUGUUACGCCGUUCGGAUCUGCACUU | -0.00194 |
| CACAGACAACAAAAACCCACACAGACACAGAGGGAAGGGGUUGGGAUGGGGACAGGGUGCACAGCAGGGCGGGGUAGGACCCCAGCCCCU | 0.696 |
| UAGCCCUGGUGGCAUGCGGGGAGGAAGAGGUGGCCUCAUGGAUCGUGGUGGUCCCGGUGGAAUGUUCAGAGGUGGCCGUGGUGGAGACAG | 0.701 |
| UGGCGCUGUCCUGGACUUGAUGGGGGAUGAAGCCCAGAACCUGACGAGGGGCCGGCAGCAGCUCAAGUGGUGAGUGAUCGAGUGAGCCGC | -0.556 |
| CAAGUCCUGUGCUACACAUCGUAUGUACCGAAUCGGUUUUUUUGGAAAAAGGUGGAAAGUAUUAUGUUACGCCGUUCGGAUCUGCACUUC | -1.17 |
| UAACUUUAGAGGAGGAUCUGAUGGAUAUGGCAGUGGACGUGGAUUUGGGGAUGGCUAUAAUGGGUAUGGAGGAGGACCUGAAGGUGGCAA | -0.256 |
| GCAGGAAGUAAAAACAAAUGGAAAUGCUUCGGAUAGUGGCAGGGGUGGGGGUUGCUAAGGAAAGGGUGGGAUGGGAGUGGGUAAAGAGAU | -0.169 |
| UGGGAGGUGGAUUUUGUUUAUUUUUUUAGCUCGUUUCCAGGGGUGGGAAUUUUUUUUUAAUAUGUGUCAUGAAUAAAGUUGUUUUUGAAA | 0.235 |
| GUCCUGUGCUACACAUCGUAUGUACCGAAUCGGUUUUUUUGGAAAAAGGAAAAAAAGGAAAGUAUUAUGUUACGCCGUUCGGAUCUGCAC | -2.06 |
| GCCCUGUAAUCGUGGAGAUCCCGCACUUUGCCUCCCAUGGCCGUGGAGACCGCGAGCUCGUGGUUCUGAGGAGCGAAAACGGCUCCGUGU | -1.26 |

Set 5
Target: Hepatocyte nuclear factor 3-alpha (Foxa1, Mus musculus, UniProt P35582, residues 1-468, full length assumed)
Chain of UniProt P35582 (whole entry, looked up): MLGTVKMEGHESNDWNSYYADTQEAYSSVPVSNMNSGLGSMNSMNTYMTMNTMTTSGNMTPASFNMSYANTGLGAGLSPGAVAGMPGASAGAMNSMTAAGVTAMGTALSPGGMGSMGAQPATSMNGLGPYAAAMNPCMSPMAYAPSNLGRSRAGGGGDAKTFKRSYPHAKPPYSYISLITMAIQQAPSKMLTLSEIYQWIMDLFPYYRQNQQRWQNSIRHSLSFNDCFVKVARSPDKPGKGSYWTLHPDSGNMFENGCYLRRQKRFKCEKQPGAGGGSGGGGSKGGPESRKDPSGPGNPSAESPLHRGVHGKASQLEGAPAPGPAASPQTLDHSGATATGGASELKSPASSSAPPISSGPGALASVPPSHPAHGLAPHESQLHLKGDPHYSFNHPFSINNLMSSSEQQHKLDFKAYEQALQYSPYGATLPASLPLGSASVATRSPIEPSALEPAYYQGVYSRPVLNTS
Method: EMSA with sequencing
Form: double-stranded DNA, one strand shown
Sample: in vitro
Concentration: 10 and 20 nM
Setting: whole designed probe, mean of two concentrations, ends assumed
Relative to: negative control set to 0
Reading: higher = stronger binding
Shared flanks, not repeated: GTGAGCGGTGCCCATTGATGGGGAAC … TTTCACTGGGATCGTGGGGAC
| Strand | normalised bound fraction [ratio] |
| --- | --- |
| ATCTTCCCCCTCTTCCTTGCCCCACCAGCTCACCTTCCCGGGTATCTGCAAATAAGTATTTATTTTCAAGCCGGCATTCGTTAACCCTCTTCTGGCGCAAACTGCTGTTTACTTTGGATCTAACATGGTCCTTTGGCGACGCCAGGCTCCGGGAGAGCAAAGCACCGTGTCAGGGCCATGATCCGGGGTGGCC | 0.392 |
| ATGTGCTAAAAATACAAGACTTGCTTACGCAGAGAGCCGGGAGCTATGTTCCAGTGAGGGTGGAAACAAAAGCCTCAGTATAAGACTGTCAGGTGTTTACACTTAAGGGTGTGGTGCTCATGTGGCAACACGAGGTTGCTGGACTCCACATGCTGAGGCTCAAAGTAGAAATCACTGATCTTATGTCACATAT | 0.383 |
| ATCTTCCCCCTCTTCCTTGCCCCACCAGCTCACCTACGGGGGTTATTTGCAGATAGGAAAATAAATAAAGCCGGCATTCGTTAACGCAGTTCACGCGCATACTGCTGTTTGCTCTGGATGAATCATGGTCCTTTGGCGACGCCAGGCTCCGGGAGAGCAAAGCACCGTGTCAGGGCCATGATCCGGGCTCGCC | 0.344 |
| GGCAGCACTTAGCAGCAGCTACAAATAACAATGGAAAGGTTGGAGAACCCATCACATGCCAGACACAGGGCTAAGTGTGCAGATACCGATTTGTGTTTACTTTTGCTCTGTAGAAGAATCAGGAGGATGAGGTCTATTTGGTTTTTACTTTTCCCATCGAGTTATCTCCCACTCTGAGACTGAAGCTGGACTT | 0.436 |
| ATCTTCCCCCTCTTCCTTGCCCCACCAGCTCACCTACGGGGGTTATTTGCAGATAGGAAAATAAATAAAGCCGGCATTCGTTAACCCTCTTCACGCGCATACTGCTGTTTGCTCTGCATGAATCATGGTCCTTACGCGAGGCGTGGCTCCGGGAGAGCAAAGCACCGTGTCAGGCGCATGATCCGGGGTGGCC | 0.356 |

Excerpt of the above (set 4):
| Strand | log2 enrichment |
| --- | --- |
| GUCCUGUGCUACACAUCGUAUGUACCGAAUCGGGAGGGAAAAAAAGGGUUUUUUUGGGAAAGUAUUAUGUUACGCCGUUCGGAUCUGCAC | -0.57 |
| AAGUCCUGUGCUACACAUCGUAUGUACCGAAUCGGAAAAGGGAAAAGGAAAAGGGGAAAGUAUUAUGUUACGCCGUUCGGAUCUGCACUU | -0.00194 |
| CACAGACAACAAAAACCCACACAGACACAGAGGGAAGGGGUUGGGAUGGGGACAGGGUGCACAGCAGGGCGGGGUAGGACCCCAGCCCCU | 0.696 |
| UAGCCCUGGUGGCAUGCGGGGAGGAAGAGGUGGCCUCAUGGAUCGUGGUGGUCCCGGUGGAAUGUUCAGAGGUGGCCGUGGUGGAGACAG | 0.701 |
| UGGCGCUGUCCUGGACUUGAUGGGGGAUGAAGCCCAGAACCUGACGAGGGGCCGGCAGCAGCUCAAGUGGUGAGUGAUCGAGUGAGCCGC | -0.556 |
| CAAGUCCUGUGCUACACAUCGUAUGUACCGAAUCGGUUUUUUUGGAAAAAGGUGGAAAGUAUUAUGUUACGCCGUUCGGAUCUGCACUUC | -1.17 |
| UAACUUUAGAGGAGGAUCUGAUGGAUAUGGCAGUGGACGUGGAUUUGGGGAUGGCUAUAAUGGGUAUGGAGGAGGACCUGAAGGUGGCAA | -0.256 |
| GCAGGAAGUAAAAACAAAUGGAAAUGCUUCGGAUAGUGGCAGGGGUGGGGGUUGCUAAGGAAAGGGUGGGAUGGGAGUGGGUAAAGAGAU | -0.169 |
| UGGGAGGUGGAUUUUGUUUAUUUUUUUAGCUCGUUUCCAGGGGUGGGAAUUUUUUUUUAAUAUGUGUCAUGAAUAAAGUUGUUUUUGAAA | 0.235 |
| GUCCUGUGCUACACAUCGUAUGUACCGAAUCGGUUUUUUUGGAAAAAGGAAAAAAAGGAAAGUAUUAUGUUACGCCGUUCGGAUCUGCAC | -2.06 |
| GCCCUGUAAUCGUGGAGAUCCCGCACUUUGCCUCCCAUGGCCGUGGAGACCGCGAGCUCGUGGUUCUGAGGAGCGAAAACGGCUCCGUGU | -1.26 |
